Measurements of several laboratories.
Parts stem from different laboratories: compare values within a part only.

Sample 1
Target: Centromere-binding protein 1, full length, His-tagged (CBF1, Saccharomyces cerevisiae, UniProt P17106, residues 1-351)
Chain of UniProt P17106 (whole entry, looked up): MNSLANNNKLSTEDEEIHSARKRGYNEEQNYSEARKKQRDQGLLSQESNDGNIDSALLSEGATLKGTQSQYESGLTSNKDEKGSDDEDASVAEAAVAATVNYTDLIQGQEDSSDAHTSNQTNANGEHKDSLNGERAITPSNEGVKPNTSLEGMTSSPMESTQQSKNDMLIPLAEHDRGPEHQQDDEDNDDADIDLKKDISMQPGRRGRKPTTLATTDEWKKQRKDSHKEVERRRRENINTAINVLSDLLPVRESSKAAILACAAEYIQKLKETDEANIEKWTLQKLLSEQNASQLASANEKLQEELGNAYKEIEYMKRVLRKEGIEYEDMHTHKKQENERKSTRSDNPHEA
Technique: competition protein-binding microarray
Form: double-stranded DNA, one strand shown
Matrix: in vitro
Concentration: 2 µM
Setting: whole 60-bp probe, lowest competitor level
With: Pho4 competitor, 0.05 µM
Reading: higher = stronger binding
Constant ends, left off below: … GTCTTGATTCGCTTGACGCTGCTG
| Sequence | fluorescence intensity |
| --- | --- |
| AGAGGGCATCTCAGCCATGTGTTCTCCAGCTCATTA | 92 a.u. |
| CTTTCCCGATCTTGAACAGTGGGTGTAGCACATTTG | 74.1 a.u. |
| TGCTGTGTATTAGTTATTAAATCGTCAAAACGATAC | 95.7 a.u. |
| AAATTACTAAGTTGCTATGTGGGTGACGCCGTATGA | 72.3 a.u. |
| ACCTTTCAGTTTCCGCGCGTGACTCGGATTTGGCGG | 744 a.u. |
| CAGCGGATTCCCGAGCACATGGAGTCGCTGAACGAC | 80.7 a.u. |
| CTAACGAAGGTTTGCCACGTGTTTTACAAGCCAAGT | 883 a.u. |
| CTTTCCCGATCTTTTCACGTGTGTTTAGCACATTTG | 595 a.u. |

Sample 2
Target: Sigma non-opioid intracellular receptor 1 (SIGMAR1, Homo sapiens, UniProt Q99720)
Observed: ligand displacement
Concentration: 10 µM
| Compound | inhibition [%] |
| --- | --- |
| Cc1c(NC(=O)c2cc(C(N)=O)nc3cc(F)ccc23)c(C(F)(F)F)nn1Cc1ccc(C#N)cc1 | -2.5 |
| C[C@H](c1ccnc(Nc2nc3ccc(-c4cc(N(C)C)ncn4)cc3[nH]2)c1)N1CCN(C(=O)CC(F)(F)F)CC1 | 3.18 |
| c1ccc(C2CCN(c3cnc4c(N5CCOCC5)nccn34)CC2)cc1 | 44 |
| Nc1nc(NCc2ccccc2)nc(-c2ccccc2CO)n1 | -0.41 |
| CN1CCN(c2ccnc(NCCc3ccccc3)n2)CC1 | 98.8 |
| CCOc1ccc(S(=O)(=O)Nc2ccc(Cl)cc2C#Cc2cnc(C(=O)O)cc2OC)c2ncccc12 | -6.66 |
| CC1=C(C#N)C(c2ccc3[nH]nc(C)c3c2)C(C#N)=C(C)N1 | -9.08 |
| CN1CCN(C(=O)C(C)(C)c2ccc(C(=O)Nc3cn4cc(-c5cc(C(C)(C)C)cc(C(C)(C)C)c5)ccc4n3)cc2)CC1 | 90 |
| CC[C@H](CC(=O)O)n1c(=O)c2ncccc2n(Cc2cn(C)c3cc(C)cc(C)c23)c1=O | -15.9 |
| CN(C)C(=O)c1sc2nc(N3CCC(S(C)(=O)=O)CC3)cc(C(F)(F)F)c2c1N | 31.5 |
| O=C1NC(c2ccccn2)Sc2ccccc21 (stereo not drawn) | -10.9 |
| N#CC1(c2ccccn2)CCN(Cc2cc(C(=O)N3CCCC3)c(=O)n3ccccc23)CC1 | 16.3 |
| CCc1ccccc1C(=O)Nc1n[nH]c2c(C)c(F)c(C3C(C#N)=C(C)N(C)C(C)=C3C#N)cc12 | 30.5 |

Sample 3
Host: human
Matrix: microsomes or S9
Concentration: 2 µM
Time: 0.5 h
| Structure (SMILES) | remaining compound |
| --- | --- |
| CC(C)COc1cc(=O)n2c(c1C(=O)NCc1ccc(C(F)(F)F)cc1)CCCCC2 | 0.195% |
| CC(C)c1csc2nc(-c3cn(C)c(=O)[nH]c3=O)[nH]c(=O)c12 | 34.2% |
| Cc1cnc(CC2CCCN(C(=O)NC(C)(C)C)C2)n1CC1CC1 (stereo not drawn) | 52.3% |

Mixed results
FHL1 DNA-binding domain: Pre-rRNA-processing protein FHL1, DNA-binding domain (FHL1, Saccharomyces cerevisiae, UniProt P39521, residues 401-638)
Chain of UniProt P39521 (401-638, looked up): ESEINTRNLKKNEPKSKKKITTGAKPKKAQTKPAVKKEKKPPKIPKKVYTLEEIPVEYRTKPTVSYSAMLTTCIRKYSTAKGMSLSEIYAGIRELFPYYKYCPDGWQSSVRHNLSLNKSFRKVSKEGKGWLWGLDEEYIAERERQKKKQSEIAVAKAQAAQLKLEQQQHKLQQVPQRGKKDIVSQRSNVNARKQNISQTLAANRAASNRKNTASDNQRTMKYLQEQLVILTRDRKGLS
| Substance | target | assay | test system | setting | scale | quantity | value |
| --- | --- | --- | --- | --- | --- | --- | --- |
| GACGCT | FHL1 DNA-binding domain | SELEX-seq | double-stranded DNA, one strand shown, in vitro | not given, 6-bp core, flanks averaged | relative to: best-binding core, lower = stronger binding | relative binding free energy | 0.385 ddG/RT |
| PhoQ, residues 284 288 289 292 302 303 SMMNNA | PhoP, residues 12 14 15 18 19 AGCRL (Escherichia coli, UniProt P23836) | Sort-seq, item: YFP reporter | E. coli | PhoQ-PhoP variant library, with: 10 µM Mg2+ | relative to: high Mg2+ state, higher = stronger signaling | fold induction | 4.68 |
| CGCGCA | FHL1 DNA-binding domain | SELEX-seq | double-stranded DNA, one strand shown, in vitro | not given, 6-bp core, flanks averaged | relative to: best-binding core, lower = stronger binding | relative binding free energy | 0.271 ddG/RT |

Excerpt of the above (sample 1):
| Sequence | fluorescence intensity |
| --- | --- |
| CAGCGGATTCCCGAGCACATGGAGTCGCTGAACGAC | 80.7 a.u. |
| CTAACGAAGGTTTGCCACGTGTTTTACAAGCCAAGT | 883 a.u. |
